Experimental data of several laboratories.
Compare with care: the assays were run in different laboratories. ± gives the spread as reported.
CHEK2: Serine/threonine-protein kinase Chk2 (CHEK2, Homo sapiens, UniProt O96017)
Chain of UniProt O96017 (whole entry, looked up): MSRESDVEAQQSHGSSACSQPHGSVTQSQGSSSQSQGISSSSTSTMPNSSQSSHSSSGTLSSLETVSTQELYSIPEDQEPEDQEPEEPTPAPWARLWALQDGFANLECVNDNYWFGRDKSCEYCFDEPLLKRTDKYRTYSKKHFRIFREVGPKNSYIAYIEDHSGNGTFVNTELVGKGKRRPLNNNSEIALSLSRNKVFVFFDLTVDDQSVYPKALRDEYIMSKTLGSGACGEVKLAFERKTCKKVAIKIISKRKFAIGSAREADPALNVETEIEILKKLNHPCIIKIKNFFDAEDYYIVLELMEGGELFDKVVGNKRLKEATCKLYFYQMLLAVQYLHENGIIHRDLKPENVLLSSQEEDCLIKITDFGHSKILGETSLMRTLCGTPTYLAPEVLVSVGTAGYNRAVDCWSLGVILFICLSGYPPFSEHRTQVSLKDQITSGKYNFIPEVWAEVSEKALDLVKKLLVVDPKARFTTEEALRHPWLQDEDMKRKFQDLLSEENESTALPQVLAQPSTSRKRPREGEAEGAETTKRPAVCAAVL
RET: Proto-oncogene tyrosine-protein kinase receptor Ret (RET, Homo sapiens, UniProt P07949)
Chain of UniProt P07949 (whole entry, looked up): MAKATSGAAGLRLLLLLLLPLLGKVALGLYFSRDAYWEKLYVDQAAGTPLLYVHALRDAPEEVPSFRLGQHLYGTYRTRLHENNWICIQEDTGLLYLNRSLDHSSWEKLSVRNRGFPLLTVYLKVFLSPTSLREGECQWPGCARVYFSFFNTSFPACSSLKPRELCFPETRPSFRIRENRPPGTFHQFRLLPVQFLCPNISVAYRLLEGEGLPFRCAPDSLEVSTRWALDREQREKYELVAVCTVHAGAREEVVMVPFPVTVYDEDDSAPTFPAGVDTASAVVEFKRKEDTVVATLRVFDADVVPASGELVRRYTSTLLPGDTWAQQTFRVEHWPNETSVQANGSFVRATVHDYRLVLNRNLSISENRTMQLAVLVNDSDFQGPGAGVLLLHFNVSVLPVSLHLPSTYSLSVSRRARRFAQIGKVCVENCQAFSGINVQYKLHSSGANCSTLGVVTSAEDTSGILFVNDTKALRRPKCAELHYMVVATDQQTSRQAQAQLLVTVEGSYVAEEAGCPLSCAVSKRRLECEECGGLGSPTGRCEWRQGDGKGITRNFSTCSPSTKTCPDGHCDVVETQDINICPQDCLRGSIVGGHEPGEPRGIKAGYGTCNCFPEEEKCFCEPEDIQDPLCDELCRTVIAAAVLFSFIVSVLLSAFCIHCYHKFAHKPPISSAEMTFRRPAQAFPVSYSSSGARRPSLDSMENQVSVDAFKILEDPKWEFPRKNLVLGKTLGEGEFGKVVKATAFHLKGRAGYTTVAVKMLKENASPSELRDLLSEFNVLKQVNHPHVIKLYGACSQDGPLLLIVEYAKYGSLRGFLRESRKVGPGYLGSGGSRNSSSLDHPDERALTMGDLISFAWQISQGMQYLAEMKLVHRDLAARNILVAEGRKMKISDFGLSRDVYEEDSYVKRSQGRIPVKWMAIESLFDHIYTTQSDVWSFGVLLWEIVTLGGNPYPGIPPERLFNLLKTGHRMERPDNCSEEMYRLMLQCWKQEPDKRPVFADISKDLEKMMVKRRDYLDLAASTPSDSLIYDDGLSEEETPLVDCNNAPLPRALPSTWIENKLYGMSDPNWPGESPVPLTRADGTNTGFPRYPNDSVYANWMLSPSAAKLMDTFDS
PTK6: Protein-tyrosine kinase 6 (PTK6, Homo sapiens, UniProt Q13882)
Chain of UniProt Q13882 (whole entry, looked up): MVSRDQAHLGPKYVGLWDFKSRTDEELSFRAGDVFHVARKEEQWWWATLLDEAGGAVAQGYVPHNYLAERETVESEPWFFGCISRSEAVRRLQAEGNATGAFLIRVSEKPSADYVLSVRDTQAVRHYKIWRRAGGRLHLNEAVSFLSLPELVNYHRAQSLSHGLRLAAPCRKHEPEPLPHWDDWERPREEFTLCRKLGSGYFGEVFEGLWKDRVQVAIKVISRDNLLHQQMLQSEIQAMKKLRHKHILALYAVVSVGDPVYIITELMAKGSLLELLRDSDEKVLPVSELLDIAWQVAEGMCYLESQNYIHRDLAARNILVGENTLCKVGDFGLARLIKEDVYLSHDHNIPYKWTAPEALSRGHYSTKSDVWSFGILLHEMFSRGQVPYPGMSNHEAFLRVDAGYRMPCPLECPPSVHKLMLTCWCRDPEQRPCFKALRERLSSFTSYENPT
Chain of UniProt Q9H2K8 (whole entry, looked up): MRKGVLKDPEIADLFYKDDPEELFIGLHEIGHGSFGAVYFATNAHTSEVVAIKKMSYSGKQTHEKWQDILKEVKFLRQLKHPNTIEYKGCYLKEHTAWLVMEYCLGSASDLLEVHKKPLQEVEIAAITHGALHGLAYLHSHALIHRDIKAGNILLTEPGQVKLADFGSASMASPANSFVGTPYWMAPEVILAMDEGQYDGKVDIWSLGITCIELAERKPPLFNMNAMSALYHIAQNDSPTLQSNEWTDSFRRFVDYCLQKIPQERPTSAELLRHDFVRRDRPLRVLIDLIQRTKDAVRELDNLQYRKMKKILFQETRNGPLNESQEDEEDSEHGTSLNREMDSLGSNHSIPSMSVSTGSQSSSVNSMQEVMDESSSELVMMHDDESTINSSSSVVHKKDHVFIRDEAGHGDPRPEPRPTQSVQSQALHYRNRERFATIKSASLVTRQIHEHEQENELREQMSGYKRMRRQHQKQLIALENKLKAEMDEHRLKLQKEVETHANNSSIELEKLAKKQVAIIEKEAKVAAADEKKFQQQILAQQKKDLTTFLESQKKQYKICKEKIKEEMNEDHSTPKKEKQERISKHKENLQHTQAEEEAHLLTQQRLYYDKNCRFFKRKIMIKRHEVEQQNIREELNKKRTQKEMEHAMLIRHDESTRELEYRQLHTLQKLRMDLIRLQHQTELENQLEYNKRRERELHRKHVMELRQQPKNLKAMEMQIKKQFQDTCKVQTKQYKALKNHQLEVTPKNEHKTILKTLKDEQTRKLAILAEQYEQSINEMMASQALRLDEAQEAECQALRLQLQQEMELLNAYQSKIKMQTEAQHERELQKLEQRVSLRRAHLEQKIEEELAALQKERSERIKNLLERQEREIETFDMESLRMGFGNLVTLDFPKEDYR
Chain of UniProt Q07002 (whole entry, looked up): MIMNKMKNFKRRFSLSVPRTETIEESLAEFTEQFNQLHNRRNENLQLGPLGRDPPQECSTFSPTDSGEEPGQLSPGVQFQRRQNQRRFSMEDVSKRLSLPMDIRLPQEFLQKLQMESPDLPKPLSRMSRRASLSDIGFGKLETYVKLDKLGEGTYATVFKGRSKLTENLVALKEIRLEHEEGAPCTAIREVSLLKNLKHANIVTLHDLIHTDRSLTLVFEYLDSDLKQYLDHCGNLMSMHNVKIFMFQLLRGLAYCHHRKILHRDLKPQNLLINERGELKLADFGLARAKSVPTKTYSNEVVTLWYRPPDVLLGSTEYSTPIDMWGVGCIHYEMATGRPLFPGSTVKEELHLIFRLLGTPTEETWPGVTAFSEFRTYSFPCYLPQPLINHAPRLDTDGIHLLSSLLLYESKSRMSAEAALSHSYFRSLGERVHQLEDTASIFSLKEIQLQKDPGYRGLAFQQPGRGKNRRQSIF
Chain of UniProt Q86Z02 (whole entry, looked up): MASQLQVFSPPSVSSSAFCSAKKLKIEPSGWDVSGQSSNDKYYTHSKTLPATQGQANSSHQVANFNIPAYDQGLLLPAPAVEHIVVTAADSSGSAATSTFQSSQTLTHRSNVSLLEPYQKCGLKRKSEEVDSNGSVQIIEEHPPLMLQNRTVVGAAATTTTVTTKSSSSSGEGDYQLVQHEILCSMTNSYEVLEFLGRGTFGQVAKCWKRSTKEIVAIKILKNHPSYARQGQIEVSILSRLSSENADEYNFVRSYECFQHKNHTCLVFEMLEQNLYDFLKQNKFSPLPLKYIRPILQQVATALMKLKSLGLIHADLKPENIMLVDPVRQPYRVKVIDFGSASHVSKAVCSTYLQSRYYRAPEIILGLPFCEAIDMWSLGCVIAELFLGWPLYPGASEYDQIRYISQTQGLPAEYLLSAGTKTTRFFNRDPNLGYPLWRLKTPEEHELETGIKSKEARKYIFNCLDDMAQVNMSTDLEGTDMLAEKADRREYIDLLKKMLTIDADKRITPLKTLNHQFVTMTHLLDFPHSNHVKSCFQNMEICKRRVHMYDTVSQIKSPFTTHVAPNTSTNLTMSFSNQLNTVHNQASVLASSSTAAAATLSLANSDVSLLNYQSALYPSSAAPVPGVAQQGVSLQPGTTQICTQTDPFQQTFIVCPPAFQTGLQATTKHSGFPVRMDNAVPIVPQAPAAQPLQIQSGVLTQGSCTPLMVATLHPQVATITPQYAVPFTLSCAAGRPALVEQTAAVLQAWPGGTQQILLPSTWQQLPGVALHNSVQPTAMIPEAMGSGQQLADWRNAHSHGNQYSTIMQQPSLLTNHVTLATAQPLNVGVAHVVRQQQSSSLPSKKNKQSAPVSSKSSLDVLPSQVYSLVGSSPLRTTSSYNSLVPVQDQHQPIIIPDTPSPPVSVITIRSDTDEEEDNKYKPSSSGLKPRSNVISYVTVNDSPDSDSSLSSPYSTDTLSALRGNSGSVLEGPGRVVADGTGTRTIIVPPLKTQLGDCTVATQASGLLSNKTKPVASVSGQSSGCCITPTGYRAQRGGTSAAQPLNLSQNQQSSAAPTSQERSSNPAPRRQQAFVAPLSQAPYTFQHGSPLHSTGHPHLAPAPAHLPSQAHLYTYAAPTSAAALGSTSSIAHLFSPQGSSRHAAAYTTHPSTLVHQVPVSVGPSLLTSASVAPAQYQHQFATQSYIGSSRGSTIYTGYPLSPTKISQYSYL
Chain of UniProt Q8IZL9 (whole entry, looked up): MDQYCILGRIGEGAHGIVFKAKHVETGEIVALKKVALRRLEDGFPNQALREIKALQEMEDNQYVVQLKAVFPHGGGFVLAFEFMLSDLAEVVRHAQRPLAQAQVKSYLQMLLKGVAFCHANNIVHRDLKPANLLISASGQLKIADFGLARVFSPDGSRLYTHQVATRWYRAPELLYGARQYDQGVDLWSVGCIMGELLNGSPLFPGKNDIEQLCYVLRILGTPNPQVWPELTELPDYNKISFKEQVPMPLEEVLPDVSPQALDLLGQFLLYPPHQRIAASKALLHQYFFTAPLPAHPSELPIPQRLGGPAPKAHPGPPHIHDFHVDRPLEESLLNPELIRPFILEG

For `c1cnc2ccc(Nc3nc(NC4CC4)c4nc[nH]c4n3)cc2c1`, the remaining activity was 102% (PIM1 (Homo sapiens, UniProt P11309); kinase activity, inhibitor, SelectScreen kinase profiling; 1 µM; relative to: control).
The remaining activity of `CC(C)C(=O)Nc1n[nH]c2cc(-c3cccc(NS(=O)(=O)C4CC4)c3)ccc12` is reported as 82.7% (PIP5K1C (Homo sapiens, UniProt O60331); ADP-Glo; 1.11 µM; relative to: DMSO).
`FC(F)(F)Oc1cccc(-c2cnc3ccc(-c4ccncc4)nn23)c1` has a remaining activity of 78% (Serine/threonine-protein kinase Pink1, mitochondrial (Pink1, Tribolium castaneum, UniProt D6WMX4); 5 µM).
`NC/C(=C\F)COc1cccc(Cn2c(=S)[nH]c(=O)c3[nH]cnc32)c1` has a remaining activity of 98.8% (Peroxidasin homolog (PXDN, Homo sapiens, UniProt Q92626); Amplex UltraRed; 0.625 µM, mean of replicates; relative to: control).
For `OC[C@H]1OC(O)[C@H](O)[C@@H](O)[C@@H]1O` (some centres unmarked), the remaining activity was 95 ± 0.6% (Alpha-L-fucosidase AlfA (Lacticaseibacillus rhamnosus, UniProt A0A809N3R1); inhibitor; 1000 µM, 5 min; relative to: untreated).
For `O=C(NC1CCC1)c1ccc2nc(-c3cccc(NS(=O)(=O)NCCN4CCCCC4)c3)cn2c1`, the remaining activity was 94% (CHEK2; enzyme activity; 10 µM).
`CC#CC(=O)N1CCC[C@H]1c1nc(-c2ccc(C(=O)Nc3ccccn3)cc2)c2c(N)nccn12` gave a remaining activity of 93.6 ± 1% (RET; kinase activity, inhibitor, HotSpot radiometric; 100 nM, together with: ATP 10 µM).
`COc1cc(Nc2cnc(C#N)c(O[C@H](C)CN(C)C)n2)ncc1-c1cnn(C)c1` has a remaining activity of 46% (human phosphorylase kinase; radiometric; 10 µM).
With `Cc1cc(NC(=O)c2cccc(NC(=O)/C=C/CN(C)C)c2)ccc1Nc1nccc(-c2cccnc2)n1` the remaining activity was 0.055 (Mitogen-activated protein kinase 8, phosphorylated (MAPK8, Homo sapiens, UniProt P45983); enzyme activity after dialysis, inhibitor; 10 µM, 3 days, unit not given; relative to: no inhibitor).
With `C[C@H]1[C@H](OC(=O)CCC(=O)O)O[C@@H]2O[C@@]3(C)CC[C@H]4[C@H](C)CC[C@@H]1[C@@]24OO3` the remaining activity was 58.3% (Non-structural polyprotein pORF1, helicase domain (Hepatitis E virus genotype 1, UniProt P33424); ATPase activity, inhibitor, colorimetric; 19.5 µM, preincubation 30 min, together with: ATP 500 µM; relative to: untreated).
With `CNc1ncc2c(/C=C/C(=O)N3CCC(OC)CC3)nn(Cc3cccc(C(F)(F)F)c3)c2n1` the remaining activity was 94% (Cyclin-dependent kinase 20, with cyclin H (CDK20, Homo sapiens, UniProt Q8IZL9); kinase activity, inhibitor; 1 µM; relative to: untreated control).
For `Cc1cc(Nc2cc(N3CCN(C)CC3)nc(Sc3ccc(NC(=O)C4CC4)cc3)n2)[nH]n1`, the remaining activity was 58% (RET; kinase activity, KinaseProfiler; 0.03 µM, species human; relative to: control).
For `O.[Fe+2].c1ccc(CN(CCN(Cc2ccccn2)Cc2ccccn2)Cc2ccccn2)cc1`, the remaining activity was roughly 70% (PSMB5 (Homo sapiens, UniProt P28074); 20S proteasome activity, inhibitor; 10 µM, incubation start, room temperature, aerobic without DTT).
For `C=CC(=O)N1CCC([C@@H]2CCNc3c(C(N)=O)c(-c4ccc(Oc5ccccc5)cc4)nn32)CC1`, the remaining activity was 103.4 ± 1% (RET; kinase activity, inhibitor, HotSpot radiometric; 100 nM, together with: ATP 10 µM).
With `C=CC(=O)N1CCC[C@@H](n2nc(-c3ccc(Oc4ccccc4)cc3)c3c(N)ncnc32)C1` the remaining activity was 141% (RET; 0.1 µM).
The remaining activity of `COc1cc(-c2cncc3c2CN(C)Cc2cc(N4CCNCC4)ccc2-3)cc(OC)c1OC` is reported as 108% (PIK3C2A (Homo sapiens, UniProt O00443); kinase activity; 1 µM, human enzyme, together with: ATP 10 µM; relative to: DMSO control).
`COc1cc(Nc2ncc3c(n2)-c2ccc(Cl)cc2C(c2c(F)cccc2OC)=NC3)ccc1C(=O)O` gave a remaining activity of 65% (ABL1 T315I; kinase activity; 1 µM).
The remaining activity of `COc1cc(N2CCN(C)CC2)ccc1Nc1nc(N)n(C(=S)NCc2c(Cl)cccc2Cl)n1` is reported as 22% (CDK18 (Homo sapiens, UniProt Q07002); enzyme activity; 10 µM; relative to: control).
With `O=C1NC(=O)/C(=C/c2ccc(-c3ccc(F)cc3O)o2)S1` the remaining activity was 53% (CHEK2; enzyme activity; 10 µM).
`COc1cc(N2CCN(C)CC2)ccc1Nc1nc(N)n(C(=O)NCc2ccccc2S(=O)(=O)C(C)C)n1` has a remaining activity of 31% (MAP3K1 (Homo sapiens, UniProt Q13233); enzyme activity; 10 µM; relative to: control).
The remaining activity of `CN(C)CC#Cc1ccc2[nH]c3c(c2c1)-c1nc(N)ncc1CCC3` is reported as 88% (HIPK1 (Homo sapiens, UniProt Q86Z02); kinase activity, inhibitor, radiometric; 1 µM, together with: ATP at Km).
The remaining activity of `C[C@@H](Oc1ccc(S(C)(=O)=O)cc1C(=O)N1C[C@@H]2C[C@]2(c2cc(C(F)(F)F)on2)C1)C(F)(F)F` is reported as 88.8% (SLC6A9 (Homo sapiens, UniProt P48067, G373S); glycine uptake, inhibitor, [3H]glycine uptake; 0.004 µM, G319S mutant, log concentration 4, together with: [3H]glycine; relative to: no inhibitor).
`COc1ccc(F)cc1C(=O)NCc1ccc(-c2nn([C@@H](C)C(F)(F)F)c(N)c2C(N)=O)cc1` gave a remaining activity of 42 ± 0.7% (PTK6; kinase activity, inhibitor, HotSpot radiometric; 100 nM, together with: ATP 10 µM).
`COc1ccc2cc3[n+](cc2c1OC)CCc1cc2c(cc1-3)OCO2` has a remaining activity of 73.1% (P2X purinoceptor 7 (P2rx7, Rattus norvegicus, UniProt Q64663); ATP-evoked current, inhibitor, whole-cell patch clamp; HEK293 transfected; 300 µM).
`COc1cc(F)ccc1-c1ncnc(Nc2cccc(C[S@](C)(=N)=O)c2)n1` gave a remaining activity of 78% (AXL (Homo sapiens, UniProt P30530); kinase activity; 10 µM, together with: 10 µM ATP).
`C=CC(=O)N1CCC[C@@H](n2nc(-c3ccc(Oc4ccccc4)cc3)c3c(N)ncnc32)C1` has a remaining activity of 3.1 ± 0.8% (PTK6; kinase activity, inhibitor, HotSpot radiometric; 100 nM, together with: ATP 10 µM).
`Nc1ncc2c(n1)-c1c([nH]c3ccc(-c4ccc(F)cc4)cc13)CCC2` gave a remaining activity of 88% (TAOK3 (Homo sapiens, UniProt Q9H2K8); kinase activity, inhibitor, radiometric; 1 µM, together with: ATP at Km).
`CC(C)OCCn1c(=S)[nH]c(=O)c2[nH]ccc21` has a remaining activity of 35.3% (Myeloperoxidase (MPO, Homo sapiens, UniProt P05164); LDL lipid peroxidation, inhibitor, cholesteryl ester hydroperoxide; 1.111 µM).
`O=C(O)c1ccc(Nc2ncc3c(n2)-c2ccc(Cl)cc2C(c2c(F)cccc2F)=NC3)cc1` has a remaining activity of 95% (human IRR(h); kinase activity; 1 µM).

Repeated from above:
`Nc1ncc2c(n1)-c1c([nH]c3ccc(-c4ccc(F)cc4)cc13)CCC2` gave a remaining activity of 88% (TAOK3 (Homo sapiens, UniProt Q9H2K8); kinase activity, inhibitor, radiometric; 1 µM, together with: ATP at Km).
With `O=C1NC(=O)/C(=C/c2ccc(-c3ccc(F)cc3O)o2)S1` the remaining activity was 53% (CHEK2; enzyme activity; 10 µM).
For `Cc1cc(Nc2cc(N3CCN(C)CC3)nc(Sc3ccc(NC(=O)C4CC4)cc3)n2)[nH]n1`, the remaining activity was 58% (RET; kinase activity, KinaseProfiler; 0.03 µM, species human; relative to: control).
`CC#CC(=O)N1CCC[C@H]1c1nc(-c2ccc(C(=O)Nc3ccccn3)cc2)c2c(N)nccn12` gave a remaining activity of 93.6 ± 1% (RET; kinase activity, inhibitor, HotSpot radiometric; 100 nM, together with: ATP 10 µM).
`COc1cc(N2CCN(C)CC2)ccc1Nc1nc(N)n(C(=O)NCc2ccccc2S(=O)(=O)C(C)C)n1` has a remaining activity of 31% (MAP3K1 (Homo sapiens, UniProt Q13233); enzyme activity; 10 µM; relative to: control).
